# Results of several laboratories.
# A part holds a random share of what one study measured. Changes are numbered by the printed parent chain.

# Set 1 — target: CCNB2, cyclin fold, Cln2 fusion (human); technique: yeast growth competition, sequencing; matrix: yeast; notes: weak parent motif; baseline: not given; reading: higher = stronger binding
# Parent: E2F1 docking peptide (human); PPVKRRLDLETDH
Substitution,normalised enrichment score
PPVPRRLDLETDH [K4P],-0.236
PPVVRRLDLETDH [K4V],0.419
PPNKRRLDLETDH [V3N],0.506
YPVKRRLDLETDH [P1Y],1.18
PPSKRRLDLETDH [V3S],0.36
PPVKYRLDLETDH [R5Y],0.151
PPVKRRLDLEFDH [T11F],2.25
KPVKRRLDLETDH [P1K],0.642
PPVKNRLDLETDH [R5N],0.299
PPVKRRLQLETDH [D8Q],0.507
PPVKRRLDLETLH [D12L],0.265
PHVKRRLDLETDH [P2H],0.437
PPVKSRLDLETDH [R5S],-0.486

# Set 2 — technique: RNA Bind-n-Seq; form: RNA; matrix: in vitro; tested at: not given; baseline: input RNA pool; reading: higher = stronger binding
# Target: RING finger protein unkempt homolog, zinc fingers 1-6, GST-SBP tag (UNK, Homo sapiens, UniProt Q9C0B0, residues 30-357)
# Sequence of UniProt Q9C0B0 (30-357, looked up): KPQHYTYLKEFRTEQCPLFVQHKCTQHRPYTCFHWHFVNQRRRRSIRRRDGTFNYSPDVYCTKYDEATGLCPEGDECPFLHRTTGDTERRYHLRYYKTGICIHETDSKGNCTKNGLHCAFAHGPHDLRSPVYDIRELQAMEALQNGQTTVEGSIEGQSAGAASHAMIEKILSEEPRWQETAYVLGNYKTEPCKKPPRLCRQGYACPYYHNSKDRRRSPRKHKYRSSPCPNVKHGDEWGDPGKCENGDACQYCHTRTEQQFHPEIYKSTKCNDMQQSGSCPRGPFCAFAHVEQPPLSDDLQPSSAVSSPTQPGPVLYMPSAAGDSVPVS
# Notes: RNA with constant flanks, human-mouse chimeric sites, ends assumed
# All sequences stand within: GGGAGUUCUACAGUCCGACGAUC … CAACAGAGGAUUGAGCAUCA
Oligonucleotide,bound/input enrichment [ratio]
GCCACCAGAUCCCAGAAACAUGACUCUUGCUGCCUACAAAGAGAAGAUGAAGGAACUCCCGCUGGUGUCCUUGUUCUGCUCCUGCUUCCUGGCCGAUCCCCUGAAUAAGUCGUCCUACAA,0.303
AAAGUGGACUAUGGCGAAUACAUGGAUAAAAACAAUGUGAGGCGGCAAGCAACAACAAUCAUAGCUGAUAACAUUAUAUUUCUGAGUGACCAGACAAAAGAAAAGGCAUAGAACGGAUGA,2.34
AGCACAACCCCAGCAAAGCUAAGAAAUCCUUGCACAAGUGAACAAAACUGCACCAGCCCAUUUAGCUACAAAAAUGUGCUCAGUCUUACUGACAGAGGAGAGUUUUUCAAUGAACUUGUU,1.91
CAGUCCCCGUGUCCCAGUGCAGGACGAUGUGAACAAAUCGAAGACAUGGACCCUCUAUUGUAGUUCUUGAUUCUCGAAAUGUGCUAUUAUUGUUUGUCUUUUUUUUUAAAAGAAAAGAGA,0.241
CUGAAAAACACAGAUAUCAAAGUUGUUGAUUUUGGAAGUGCAACGUAUGACGACGAACAUCACAGUACUUUGGUGUCUACCCGGCACUACAGAGCUCCCGAGGUCAUUUUGGCUUUAGGU,0.45
UUGGAAGGACCAGAGCCCAGUCAGCUCAAACCAUUAGUCAUACAGGCUAUGCCCACCCUAAUAGAACUAAUGAAAGACCCCAGUGUAGUUGUUCGAGACACAACAGCAUGGACUGUAGGC,0.606
ACCUCCCAGGCCUGGGACACCCCACCCCCGCUUUUUGGAAAGUUUUUGGCGUUUCUUUUCCUUCCCCAGUUAGAAUUAUUACAGUUUCCCCCGCAAGGGUCUAUCGAAGGGCUUGACGGA,25.2
AUGGAGAAGGAUUCUCUGCCUCGCUUUGUGCGCUCUGAAUUUUAUAAGGAGCUAAUCAAGUAGUCAUCUGGUCAGGCUUCCAAAAGUUGCCCUGUGAUAUUUCCUCCAUCCUUUGUAGCA,0.169

# Set 3 — technique: protein-binding microarray; form: double-stranded DNA, one strand shown; matrix: in vitro; tested at: 940 nM top; notes: 60-bp whole probe; added: salmon DNA 0.4 mg/ml; baseline: random background probes; reading: higher = stronger binding; all sequences stand within: GCCTAGCAC … GTCTTGATTCGCTTGACGCTGCTG
# Target: Interferon regulatory factor 5, full length, phosphomimetic (IRF5, Homo sapiens, UniProt Q13568-2, residues 1-514, S451D/S453D/S456D/S462D)
Oligonucleotide,fitted relative affinity
TCACATTTAATTATATGACTGTGCTAG,0.285 z-score
GACGGTATCCTTATGCTGACGTGCTAG,-0.0139 z-score
GTCGGACTGCTTCTCCTGACGTGCTAG,0.266 z-score
CTAGGTTCCGGTTTCGGTTAGTGCTAG,8.98 z-score
GACGATTTAAGTTCCGAGACGTGCTAG,0.49 z-score
TTAAATTTCAGTTCCGATTAGTGCTAG,1.69 z-score
TTAGGTATCGGGACCGGGTTAGTGCTA,4.48 z-score
TTAGATTCCAGCTTCGATTAGTGCTAG,0.0807 z-score
TTAGGACTGGGGCTCGGTTAGTGCTAG,-0.345 z-score
GGCGAACTGAGTCTCGAGACGTGCTAG,0.743 z-score
TCATACATGGGTTTTCAGACTGTGCTA,0.0788 z-score
GACGGTATCCTTAACCTGACGTGCTAG,0.43 z-score
GACGGTTTCGGGTATCGGAACGTGCTA,9.52 z-score
GACGGTATCGACTACCGGGACGTGCTA,5.96 z-score
GACCGTATCCTACTGCTGACGTGCTAG,0.145 z-score
TTAGGTTTCCACTATCGGTTAGTGCTA,1.71 z-score
TCAGGAAACTTAAACTAGACTGTGCTA,-0.0268 z-score

# Further values, each from its own experiment
Substance,target,assay,system,setting,how to read,endpoint,value
"PhoQ, residues 284 288 289 292 302 303 ALAMYF","PhoP, residues 12 14 15 18 19 TPLRH (Escherichia coli, UniProt P23836)","Sort-seq, item: YFP reporter",E. coli,"PhoQ-PhoP variant library, added: 10 µM Mg2+","baseline: high Mg2+ state, higher = stronger signaling",fold induction,5.78

# Excerpt of the above (set 3):
Oligonucleotide,fitted relative affinity
GACCGTATCCTACTGCTGACGTGCTAG,0.145 z-score
TTAGGTTTCCACTATCGGTTAGTGCTA,1.71 z-score
TCAGGAAACTTAAACTAGACTGTGCTA,-0.0268 z-score
